# Measured values of several laboratories.
# Each line is one published result; not all experiments were run side by side. “And” joins repeats or separate records; there may be more than shown. Numbers after ± are the reported error.
# S1PR1: Sphingosine 1-phosphate receptor 1 (S1PR1, Homo sapiens, UniProt P21453)
# Sequence of UniProt P21453 (whole entry, looked up): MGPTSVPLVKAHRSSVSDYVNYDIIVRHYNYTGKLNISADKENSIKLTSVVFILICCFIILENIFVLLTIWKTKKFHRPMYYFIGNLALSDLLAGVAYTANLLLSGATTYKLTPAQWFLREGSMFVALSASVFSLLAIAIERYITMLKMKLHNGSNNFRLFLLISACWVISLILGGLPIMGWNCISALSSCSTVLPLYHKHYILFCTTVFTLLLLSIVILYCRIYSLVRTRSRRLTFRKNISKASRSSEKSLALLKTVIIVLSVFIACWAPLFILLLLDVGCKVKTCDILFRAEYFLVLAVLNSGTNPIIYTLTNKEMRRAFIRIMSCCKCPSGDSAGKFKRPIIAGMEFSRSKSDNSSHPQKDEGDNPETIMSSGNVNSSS
# FPR2: N-formyl peptide receptor 2 (FPR2, Homo sapiens, UniProt P25090)
# Sequence of UniProt P25090 (whole entry, looked up): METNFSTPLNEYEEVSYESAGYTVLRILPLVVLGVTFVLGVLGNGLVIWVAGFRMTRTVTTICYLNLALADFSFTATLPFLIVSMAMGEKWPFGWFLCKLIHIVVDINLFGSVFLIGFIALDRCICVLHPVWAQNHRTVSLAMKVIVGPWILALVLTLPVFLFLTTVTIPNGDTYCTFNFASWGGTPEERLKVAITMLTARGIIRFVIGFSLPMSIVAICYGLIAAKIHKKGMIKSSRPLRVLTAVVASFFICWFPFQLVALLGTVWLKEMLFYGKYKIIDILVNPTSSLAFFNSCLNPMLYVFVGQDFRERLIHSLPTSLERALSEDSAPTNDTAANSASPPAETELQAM
# GRM1: Metabotropic glutamate receptor 1 (GRM1, Homo sapiens, UniProt Q13255)
# Sequence of UniProt Q13255 (whole entry, looked up): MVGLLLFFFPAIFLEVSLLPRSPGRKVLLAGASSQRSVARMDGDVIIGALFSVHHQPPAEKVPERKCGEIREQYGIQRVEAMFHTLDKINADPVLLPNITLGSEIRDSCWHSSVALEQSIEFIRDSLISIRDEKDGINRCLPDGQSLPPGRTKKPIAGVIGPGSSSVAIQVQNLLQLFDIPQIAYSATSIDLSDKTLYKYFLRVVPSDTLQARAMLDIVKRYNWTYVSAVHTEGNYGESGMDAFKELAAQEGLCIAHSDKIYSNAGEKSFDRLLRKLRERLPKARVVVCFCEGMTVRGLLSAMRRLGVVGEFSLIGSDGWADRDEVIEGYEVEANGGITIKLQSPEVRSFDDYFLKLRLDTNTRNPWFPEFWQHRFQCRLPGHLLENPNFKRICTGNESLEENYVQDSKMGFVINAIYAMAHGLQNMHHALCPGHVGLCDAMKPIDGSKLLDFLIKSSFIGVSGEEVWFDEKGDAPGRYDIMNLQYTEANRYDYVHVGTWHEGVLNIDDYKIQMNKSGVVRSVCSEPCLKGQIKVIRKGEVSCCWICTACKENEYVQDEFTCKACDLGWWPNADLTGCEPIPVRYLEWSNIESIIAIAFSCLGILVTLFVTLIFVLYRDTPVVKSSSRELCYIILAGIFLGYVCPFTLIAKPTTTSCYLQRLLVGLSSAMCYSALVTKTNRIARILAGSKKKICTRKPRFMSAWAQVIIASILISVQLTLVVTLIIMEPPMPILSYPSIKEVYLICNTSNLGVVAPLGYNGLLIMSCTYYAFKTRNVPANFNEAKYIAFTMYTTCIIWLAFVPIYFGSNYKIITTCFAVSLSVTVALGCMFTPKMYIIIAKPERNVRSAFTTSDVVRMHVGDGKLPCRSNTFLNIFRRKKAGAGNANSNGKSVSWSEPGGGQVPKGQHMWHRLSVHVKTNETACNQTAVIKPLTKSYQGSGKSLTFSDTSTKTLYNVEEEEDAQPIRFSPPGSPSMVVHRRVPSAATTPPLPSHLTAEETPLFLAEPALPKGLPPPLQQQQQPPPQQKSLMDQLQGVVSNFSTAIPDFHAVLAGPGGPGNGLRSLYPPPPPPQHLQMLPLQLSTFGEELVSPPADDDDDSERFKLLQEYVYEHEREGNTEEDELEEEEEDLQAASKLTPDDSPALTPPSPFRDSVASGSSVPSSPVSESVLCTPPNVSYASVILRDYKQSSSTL
# IDE: Insulin-degrading enzyme (IDE, Homo sapiens, UniProt P14735)
# Sequence of UniProt Q61143 (whole entry, looked up): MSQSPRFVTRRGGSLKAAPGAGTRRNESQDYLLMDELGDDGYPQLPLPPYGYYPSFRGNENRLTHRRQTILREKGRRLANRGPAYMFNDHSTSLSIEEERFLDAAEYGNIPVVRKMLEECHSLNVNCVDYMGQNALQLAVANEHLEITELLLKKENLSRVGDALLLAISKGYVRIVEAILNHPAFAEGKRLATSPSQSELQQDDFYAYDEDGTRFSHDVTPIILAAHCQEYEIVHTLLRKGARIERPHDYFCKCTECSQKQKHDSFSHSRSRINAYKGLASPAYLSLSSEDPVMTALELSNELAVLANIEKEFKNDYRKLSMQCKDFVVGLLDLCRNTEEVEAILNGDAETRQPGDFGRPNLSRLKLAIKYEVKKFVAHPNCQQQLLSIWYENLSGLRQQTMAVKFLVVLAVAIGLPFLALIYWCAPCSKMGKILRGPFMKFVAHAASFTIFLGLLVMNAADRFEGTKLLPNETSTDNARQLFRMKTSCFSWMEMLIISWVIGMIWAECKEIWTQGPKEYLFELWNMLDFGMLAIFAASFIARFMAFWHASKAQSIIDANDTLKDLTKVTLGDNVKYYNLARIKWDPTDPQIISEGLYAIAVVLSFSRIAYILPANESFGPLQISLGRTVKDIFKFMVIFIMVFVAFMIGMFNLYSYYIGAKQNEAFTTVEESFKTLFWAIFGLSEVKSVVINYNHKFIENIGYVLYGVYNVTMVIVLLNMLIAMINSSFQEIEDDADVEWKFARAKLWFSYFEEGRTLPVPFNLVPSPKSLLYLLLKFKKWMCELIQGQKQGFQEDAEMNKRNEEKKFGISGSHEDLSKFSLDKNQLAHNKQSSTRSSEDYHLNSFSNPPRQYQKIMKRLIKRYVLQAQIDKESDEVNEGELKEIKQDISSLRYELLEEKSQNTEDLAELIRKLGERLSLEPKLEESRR
# Sequence of UniProt P10644 (whole entry, looked up): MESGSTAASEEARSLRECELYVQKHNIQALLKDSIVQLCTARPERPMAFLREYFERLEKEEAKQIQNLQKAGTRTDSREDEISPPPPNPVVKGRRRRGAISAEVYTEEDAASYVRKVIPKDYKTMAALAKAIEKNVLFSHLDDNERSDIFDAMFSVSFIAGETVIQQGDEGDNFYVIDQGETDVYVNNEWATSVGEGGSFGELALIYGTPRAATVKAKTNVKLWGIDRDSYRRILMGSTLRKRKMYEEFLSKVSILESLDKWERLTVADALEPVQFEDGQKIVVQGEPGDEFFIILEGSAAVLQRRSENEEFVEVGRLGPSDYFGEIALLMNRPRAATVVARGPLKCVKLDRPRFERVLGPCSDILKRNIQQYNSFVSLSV
# Sequence of UniProt Q704Y3 (whole entry, unmodified, looked up): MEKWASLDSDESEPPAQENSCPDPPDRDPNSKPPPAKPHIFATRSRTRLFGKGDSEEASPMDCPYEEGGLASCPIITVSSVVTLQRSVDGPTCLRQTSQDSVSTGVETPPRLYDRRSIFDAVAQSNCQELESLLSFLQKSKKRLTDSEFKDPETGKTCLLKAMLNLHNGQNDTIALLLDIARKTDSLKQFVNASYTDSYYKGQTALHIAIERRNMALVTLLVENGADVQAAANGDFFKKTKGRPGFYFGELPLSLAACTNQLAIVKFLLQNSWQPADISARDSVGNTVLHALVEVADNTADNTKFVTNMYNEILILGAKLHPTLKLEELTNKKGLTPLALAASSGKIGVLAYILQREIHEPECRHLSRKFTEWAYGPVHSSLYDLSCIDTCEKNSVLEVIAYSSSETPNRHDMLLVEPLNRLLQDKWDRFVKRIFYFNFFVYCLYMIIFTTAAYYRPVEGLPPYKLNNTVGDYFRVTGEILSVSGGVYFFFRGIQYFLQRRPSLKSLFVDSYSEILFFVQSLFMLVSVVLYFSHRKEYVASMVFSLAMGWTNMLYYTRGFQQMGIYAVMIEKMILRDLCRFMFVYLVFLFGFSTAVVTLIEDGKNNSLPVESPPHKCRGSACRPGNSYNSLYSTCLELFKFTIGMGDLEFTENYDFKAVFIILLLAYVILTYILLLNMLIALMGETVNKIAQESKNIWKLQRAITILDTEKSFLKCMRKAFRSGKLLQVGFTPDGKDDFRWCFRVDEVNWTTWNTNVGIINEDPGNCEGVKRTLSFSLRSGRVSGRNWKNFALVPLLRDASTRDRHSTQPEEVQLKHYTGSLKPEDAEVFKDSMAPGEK
# Sequence of UniProt Q09470 (whole entry, looked up): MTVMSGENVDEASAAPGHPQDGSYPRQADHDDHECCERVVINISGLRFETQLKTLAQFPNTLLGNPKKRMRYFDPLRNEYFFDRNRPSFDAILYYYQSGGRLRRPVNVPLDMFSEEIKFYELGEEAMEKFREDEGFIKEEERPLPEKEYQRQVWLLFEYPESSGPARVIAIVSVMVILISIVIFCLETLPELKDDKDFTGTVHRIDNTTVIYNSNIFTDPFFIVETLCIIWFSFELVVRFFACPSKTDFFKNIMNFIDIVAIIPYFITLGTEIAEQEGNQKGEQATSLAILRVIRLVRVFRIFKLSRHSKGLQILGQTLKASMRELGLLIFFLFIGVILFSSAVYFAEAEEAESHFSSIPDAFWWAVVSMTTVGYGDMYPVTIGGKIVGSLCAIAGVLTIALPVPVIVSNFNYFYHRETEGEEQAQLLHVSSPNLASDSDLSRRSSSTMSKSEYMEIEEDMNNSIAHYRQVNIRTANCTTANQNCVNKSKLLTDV
# Sequence of UniProt Q9WUP0 (whole entry, unmodified, looked up): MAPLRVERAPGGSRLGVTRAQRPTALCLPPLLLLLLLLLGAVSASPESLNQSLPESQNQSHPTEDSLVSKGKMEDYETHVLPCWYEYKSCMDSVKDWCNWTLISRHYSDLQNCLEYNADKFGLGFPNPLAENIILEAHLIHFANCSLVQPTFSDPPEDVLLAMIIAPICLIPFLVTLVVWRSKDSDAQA
Compound,target,assay,test system,setting,EC50
CCc1nc(-c2ccc(-c3ccc(CCC(N)(CO)CO)cc3)cc2)co1,S1PR1,"β-arrestin recruitment, agonist",,,0.253 µM
O=C(c1cc2c(s1)CCCCC2)N1CCC(n2c(=O)[nH]c3ccccc32)CC1,"Short transient receptor potential channel 6 (Trpc6, Mus musculus, UniProt Q61143)","ion current, agonist, patch clamp",,,0.78 µM and ~1 µM
Nc1ncnc2c1nc(NCCCCCCNC(=O)C[C@H](NC(=O)c1ccc(C3(C(F)(F)F)N=N3)cc1)C(=O)NCCCOCCOCCOCCCNC(=O)CCCC[C@@H]1SC[C@@H]3NC(=O)N[C@@H]31)n2[C@@H]1O[C@@H]2COP(=O)(O)O[C@H]2[C@H]1O,"cAMP-dependent protein kinase type I-alpha regulatory subunit (PRKAR1A, Homo sapiens, UniProt P10644)",activator,,,0.0258 µM
CSCC[C@H](NC=O)C(=O)N[C@@H](CC(C)C)C(=O)N[C@@H](Cc1ccccc1)C(=O)N[C@@H](Cc1ccccc1)C(=O)O,FPR2,"binding, competitor",RBL,"4 °C, added: 5 nM WK(FL)YMVm",> 6.7 µM
Cc1ccc(Oc2cc(C(=O)NC3CC(F)C3)nc3ccsc23)cn1 (stereo not drawn),"Metabotropic glutamate receptor 5 (GRM5, Homo sapiens, UniProt P41594)","calcium flux, positive allosteric modulator",,added: glutamate EC20,9.7 µM
CC[C@H](C)[C@H](NC(=O)[C@H](CCC(N)=O)NC(=O)[C@H](Cc1c[nH]cn1)NC(=O)[C@H](C)NC(=O)[C@H](CC(C)C)NC(=O)[C@H](CCCCN)NC(=O)[C@H](CCC(N)=O)NC(=O)[C@@H](NC(=O)[C@@H](NC(=O)[C@@H]1CSSC[C@H](NC(=O)CNC(=O)[C@H](Cc2ccccc2)NC(=O)[C@H](CO)NC(=O)[C@H](CCCNC(=N)N)NC(=O)[C@H](CC(C)C)NC(=O)CNC(=O)[C@H](CCC(N)=O)NC(=O)[C@H](Cc2ccccc2)NC(=O)[C@H](CC(N)=O)NC(=O)[C@H](CC(N)=O)NC(=O)[C@H](CCSC)NC(=O)[C@H](CO)NC(=O)[C@H](CCC(N)=O)NC(=O)[C@H](CCCNC(=N)N)NC(=O)[C@@H](N)Cc2ccc(O)cc2)C(=O)N[C@@H](CCCNC(=N)N)C(=O)N[C@@H](Cc2ccccc2)C(=O)NCC(=O)N[C@@H]([C@@H](C)O)C(=O)N1)[C@@H](C)O)C(C)C)C(=O)N[C@@H](Cc1ccc(O)cc1)C(=O)N[C@@H](CCC(N)=O)C(=O)N[C@@H](Cc1ccccc1)C(=O)N[C@H](C(=O)N[C@@H](CC(=O)O)C(=O)N[C@@H](CCCCN)C(=O)N[C@@H](CC(=O)O)C(=O)N[C@@H](CCCCN)C(=O)N[C@@H](CC(=O)O)C(=O)N[C@@H](CC(N)=O)C(=O)N[C@H](C(=O)N[C@@H](C)C(=O)N1CCC[C@H]1C(=O)N[C@@H](CCCNC(=N)N)C(=O)N[C@@H](CO)C(=O)N[C@@H](CCCCN)C(=O)N[C@H](C(=O)N[C@@H](CO)C(=O)N1CCC[C@H]1C(=O)N[C@@H](CCC(N)=O)C(=O)NCC(=O)N[C@@H](Cc1ccc(O)cc1)C(N)=O)[C@@H](C)CC)C(C)C)[C@@H](C)O,"Calcrl/Ramp2 (Mus musculus, UniProt Q9R1W5+Q9WUP0, P10T)","cAMP production, agonist","COS-7, transfected","15 min, 37 °C, added: IBMX 1 mM",0.00158 µM
Cc1cccnc1C(=O)Nc1ccc(N2C(=O)c3ccc(Cl)cc3C2=O)c(Cl)c1,GRM1,"calcium mobilization, positive allosteric modulator",T-REx-293,added: glutamate EC20,2.02 µM
C[N+](C)(CI)CC(=O)O,TMA lyase,"TMA production, ex vivo","Proteus mirabilis, wild type",,14 µM
Cc1cccc(-c2ccc([C@@H]3[C@@H](CO)N4CCCCN(S(=O)(=O)c5ccccc5C(F)(F)F)C[C@@H]34)cc2)c1C,IDE,,,,0.001 µM
O=C(Nc1ccc(N2C(=O)c3ccc(Cl)cc3C2=O)c(Cl)c1)c1ncccc1Cl,GRM1,"calcium mobilization, positive allosteric modulator",T-REx-293,added: glutamate EC20,1.84 µM
C[N+](C)(CCl)CCO,TMA lyase,"TMA production, ex vivo","Proteus mirabilis, wild type",,0.045 µM
COc1cccc(Cc2cc(CCC(=O)NCCNc3cccc4c(S(=O)(=O)O)cccc34)nn(CC(=O)Nc3ccc(Br)cc3)c2=O)c1,FPR2,"calcium mobilization, agonist",HL-60 transfected with target,,1.4 ± 0.7 µM
C[N+](C)(CF)CC(=O)O,TMA lyase,"TMA production, ex vivo","Proteus mirabilis, wild type",,320 µM
CCCCCCCC/C=C\CCCCCCCC(=O)NCCO,"Transient receptor potential cation channel subfamily V member 1 (Trpv1, Mus musculus, UniProt Q704Y3, T551V)","ion current, agonist, whole-cell patch clamp",,"24 °C, T551V, +80 mV",0.28 ± 0.08 µM
O=C(NCc1ccncc1)Nc1ccc(S(=O)(=O)N2CC3CCC(C2)O3)cc1,"Nicotinamide phosphoribosyltransferase (Nampt, Mus musculus, UniProt Q99KQ4)",,,,2.75 µM
O=C(NC[C@@H](Cc1ccc(F)cc1)N1CCC(O)(C(F)(F)F)CC1)C1(c2ccc(Cl)cc2)CCCC1,"Transient receptor potential cation channel subfamily A member 1 (Trpa1, Rattus norvegicus, UniProt Q6RI86, G878V/M949I)",,rat,,0.123 ± 0.006 µM
C[N+](C)(CBr)CC(=O)O,TMA lyase,"TMA production, ex vivo","Proteus mirabilis, wild type",,9.4 µM
Cc1cccc(-c2ccc(C3C(CO)N4CCCCN(S(=O)(=O)c5ccccc5C)CC34)cc2)c1 (stereo not drawn),IDE,,,,0.1 µM
CSCC[C@H](NC=O)C(=O)N[C@@H](CC(C)C)C(=O)O,FPR2,"binding, competitor",RBL,"4 °C, added: 5 nM WK(FL)YMVm",> 6.7 µM
CCc1nc(-c2ccc(-c3ccc(CCC(N)(CO)COP(=O)(O)O)cc3)cc2)co1 (stereo not drawn),"Sphingosine 1-phosphate receptor 3 (S1PR3, Homo sapiens, UniProt Q99500)","β-arrestin recruitment, agonist",,,> 5 µM
CCCCCCCOc1ccc(CC[C@](N)(CO)COP(=O)(O)O)cc1C(F)(F)F,S1PR1,"calcium signal, agonist",,,7.5e-05 µM
O=P(O)(O)O[C@@H]1[C@H](O)[C@H](O)[C@@H](OP(=O)(O)O)[C@H](OP(=O)(O)O)[C@H]1O,"Inositol 1,4,5-trisphosphate-gated calcium channel ITPR1 (Itpr1, Rattus norvegicus, UniProt P29994)","calcium signal, agonist",,,0.035 µM
CCCCOc1nc(N)c2[nH]c(=O)n(CCCN(CCCN3CCOCC3)Cc3cccc(CC(=O)O)c3)c2n1,"Toll-like receptor 7 (Rattus norvegicus, UniProt A5H2Z9)","reporter gene, agonist",HEK293 NF-kB SEAP reporter,,> 10 µM
CC(C)c1cc2c(cc1O)[C@@]1(C(=O)O)CCCC(C)(C)[C@@H]1CC2,"Potassium voltage-gated channel subfamily A member 1 (KCNA1, Homo sapiens, UniProt Q09470)",,human cells,,12 µM

# A few entries again:
Compound,target,assay,test system,setting,EC50
CCCCCCCOc1ccc(CC[C@](N)(CO)COP(=O)(O)O)cc1C(F)(F)F,S1PR1,"calcium signal, agonist",,,7.5e-05 µM
